Measured values of several laboratories.
A part holds a random share of what one study measured. Substitutions count along the parent as printed.
Chain of UniProt P30291 (whole entry, looked up): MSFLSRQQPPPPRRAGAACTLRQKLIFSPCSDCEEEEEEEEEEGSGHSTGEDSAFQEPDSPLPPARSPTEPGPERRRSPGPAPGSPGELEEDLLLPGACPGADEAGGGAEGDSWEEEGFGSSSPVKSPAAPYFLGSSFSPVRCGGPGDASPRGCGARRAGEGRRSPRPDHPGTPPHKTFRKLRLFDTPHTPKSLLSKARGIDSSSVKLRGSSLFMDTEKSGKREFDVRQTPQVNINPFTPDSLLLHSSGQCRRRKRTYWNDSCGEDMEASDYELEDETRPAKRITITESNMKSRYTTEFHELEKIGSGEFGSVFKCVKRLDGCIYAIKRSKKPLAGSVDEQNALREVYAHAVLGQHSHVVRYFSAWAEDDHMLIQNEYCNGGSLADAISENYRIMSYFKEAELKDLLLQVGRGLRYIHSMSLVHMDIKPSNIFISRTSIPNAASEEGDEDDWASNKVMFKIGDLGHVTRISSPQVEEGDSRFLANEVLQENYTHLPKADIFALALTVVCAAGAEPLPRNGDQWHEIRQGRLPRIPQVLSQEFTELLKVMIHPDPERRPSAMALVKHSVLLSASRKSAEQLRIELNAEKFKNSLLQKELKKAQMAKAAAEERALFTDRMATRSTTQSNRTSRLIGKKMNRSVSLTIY
Chain of UniProt Q9UL54 (whole entry, looked up): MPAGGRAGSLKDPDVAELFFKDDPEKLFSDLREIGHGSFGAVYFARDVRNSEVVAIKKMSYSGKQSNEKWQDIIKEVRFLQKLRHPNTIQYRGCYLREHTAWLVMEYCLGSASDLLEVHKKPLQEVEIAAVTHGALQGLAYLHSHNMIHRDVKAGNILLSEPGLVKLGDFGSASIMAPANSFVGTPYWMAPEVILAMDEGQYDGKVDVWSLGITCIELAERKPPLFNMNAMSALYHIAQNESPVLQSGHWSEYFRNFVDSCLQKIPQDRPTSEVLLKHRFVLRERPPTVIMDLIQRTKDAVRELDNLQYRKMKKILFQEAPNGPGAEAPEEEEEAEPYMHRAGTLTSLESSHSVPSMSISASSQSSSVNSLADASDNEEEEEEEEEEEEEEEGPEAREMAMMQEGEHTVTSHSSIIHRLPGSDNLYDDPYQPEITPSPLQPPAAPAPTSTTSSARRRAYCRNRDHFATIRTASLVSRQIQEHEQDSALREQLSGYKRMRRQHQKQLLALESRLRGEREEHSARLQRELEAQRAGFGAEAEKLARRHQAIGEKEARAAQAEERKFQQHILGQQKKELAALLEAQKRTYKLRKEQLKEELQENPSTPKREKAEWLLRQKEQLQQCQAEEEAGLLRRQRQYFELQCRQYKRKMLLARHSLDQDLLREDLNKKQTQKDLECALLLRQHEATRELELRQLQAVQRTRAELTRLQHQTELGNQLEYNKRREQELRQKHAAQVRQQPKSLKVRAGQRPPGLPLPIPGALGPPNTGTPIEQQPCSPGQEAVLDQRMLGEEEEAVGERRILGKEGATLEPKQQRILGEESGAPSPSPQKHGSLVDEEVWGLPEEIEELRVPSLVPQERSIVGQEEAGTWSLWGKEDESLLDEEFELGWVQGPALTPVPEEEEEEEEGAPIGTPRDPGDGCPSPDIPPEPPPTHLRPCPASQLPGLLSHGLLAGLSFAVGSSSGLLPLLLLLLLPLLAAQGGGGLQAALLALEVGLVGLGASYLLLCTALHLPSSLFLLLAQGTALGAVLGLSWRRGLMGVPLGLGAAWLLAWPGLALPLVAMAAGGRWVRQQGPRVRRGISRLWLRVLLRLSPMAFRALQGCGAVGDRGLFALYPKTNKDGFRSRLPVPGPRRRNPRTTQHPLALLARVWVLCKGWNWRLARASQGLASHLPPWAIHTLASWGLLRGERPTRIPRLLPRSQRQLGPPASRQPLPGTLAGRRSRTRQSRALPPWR
Chain of UniProt P22607 (whole entry, unmodified, looked up): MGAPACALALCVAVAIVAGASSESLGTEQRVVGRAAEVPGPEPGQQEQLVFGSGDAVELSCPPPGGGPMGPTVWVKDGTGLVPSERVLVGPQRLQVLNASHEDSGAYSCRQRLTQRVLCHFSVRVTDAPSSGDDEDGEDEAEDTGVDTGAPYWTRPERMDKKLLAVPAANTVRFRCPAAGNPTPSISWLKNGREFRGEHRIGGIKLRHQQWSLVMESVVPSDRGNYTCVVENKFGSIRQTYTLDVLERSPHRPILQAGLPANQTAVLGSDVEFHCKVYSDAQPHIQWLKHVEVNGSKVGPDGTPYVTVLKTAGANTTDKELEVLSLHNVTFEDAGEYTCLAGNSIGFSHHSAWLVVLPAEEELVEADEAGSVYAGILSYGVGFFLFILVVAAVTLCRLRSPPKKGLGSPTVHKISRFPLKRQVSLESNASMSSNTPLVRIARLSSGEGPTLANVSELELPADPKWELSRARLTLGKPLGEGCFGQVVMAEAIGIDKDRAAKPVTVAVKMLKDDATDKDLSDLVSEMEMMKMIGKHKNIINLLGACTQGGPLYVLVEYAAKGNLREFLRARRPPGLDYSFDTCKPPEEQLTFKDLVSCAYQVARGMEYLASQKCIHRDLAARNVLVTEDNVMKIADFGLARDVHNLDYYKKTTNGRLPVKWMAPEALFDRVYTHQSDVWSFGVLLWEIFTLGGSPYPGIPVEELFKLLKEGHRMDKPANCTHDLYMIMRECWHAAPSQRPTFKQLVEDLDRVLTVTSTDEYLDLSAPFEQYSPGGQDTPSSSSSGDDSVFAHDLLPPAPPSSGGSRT
Chain of UniProt P29320 (whole entry, looked up): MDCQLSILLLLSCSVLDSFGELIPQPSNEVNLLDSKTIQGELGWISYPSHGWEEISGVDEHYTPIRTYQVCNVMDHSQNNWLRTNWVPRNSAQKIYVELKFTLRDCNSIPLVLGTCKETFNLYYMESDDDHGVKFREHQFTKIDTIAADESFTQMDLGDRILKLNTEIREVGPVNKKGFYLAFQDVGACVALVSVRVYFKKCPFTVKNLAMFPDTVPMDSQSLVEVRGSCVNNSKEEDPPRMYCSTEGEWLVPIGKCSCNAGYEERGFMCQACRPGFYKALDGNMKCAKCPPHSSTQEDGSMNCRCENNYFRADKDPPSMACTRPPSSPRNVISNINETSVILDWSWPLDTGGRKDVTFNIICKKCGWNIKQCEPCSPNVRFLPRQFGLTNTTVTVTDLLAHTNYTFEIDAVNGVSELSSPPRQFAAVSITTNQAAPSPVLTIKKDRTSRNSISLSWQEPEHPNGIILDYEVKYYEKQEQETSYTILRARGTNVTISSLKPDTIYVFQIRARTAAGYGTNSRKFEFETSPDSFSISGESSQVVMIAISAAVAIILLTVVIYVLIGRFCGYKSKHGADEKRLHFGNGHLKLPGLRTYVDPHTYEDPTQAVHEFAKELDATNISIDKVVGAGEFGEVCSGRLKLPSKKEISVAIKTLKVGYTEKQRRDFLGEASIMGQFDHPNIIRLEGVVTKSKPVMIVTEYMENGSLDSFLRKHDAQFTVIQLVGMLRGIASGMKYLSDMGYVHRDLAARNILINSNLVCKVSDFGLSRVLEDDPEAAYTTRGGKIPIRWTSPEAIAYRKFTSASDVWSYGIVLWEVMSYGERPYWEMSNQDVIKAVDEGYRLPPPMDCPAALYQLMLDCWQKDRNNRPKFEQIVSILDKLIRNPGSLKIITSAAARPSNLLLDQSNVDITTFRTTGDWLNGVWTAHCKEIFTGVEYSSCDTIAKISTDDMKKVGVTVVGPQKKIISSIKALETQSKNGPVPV
Chain of UniProt O75582 (whole entry, looked up): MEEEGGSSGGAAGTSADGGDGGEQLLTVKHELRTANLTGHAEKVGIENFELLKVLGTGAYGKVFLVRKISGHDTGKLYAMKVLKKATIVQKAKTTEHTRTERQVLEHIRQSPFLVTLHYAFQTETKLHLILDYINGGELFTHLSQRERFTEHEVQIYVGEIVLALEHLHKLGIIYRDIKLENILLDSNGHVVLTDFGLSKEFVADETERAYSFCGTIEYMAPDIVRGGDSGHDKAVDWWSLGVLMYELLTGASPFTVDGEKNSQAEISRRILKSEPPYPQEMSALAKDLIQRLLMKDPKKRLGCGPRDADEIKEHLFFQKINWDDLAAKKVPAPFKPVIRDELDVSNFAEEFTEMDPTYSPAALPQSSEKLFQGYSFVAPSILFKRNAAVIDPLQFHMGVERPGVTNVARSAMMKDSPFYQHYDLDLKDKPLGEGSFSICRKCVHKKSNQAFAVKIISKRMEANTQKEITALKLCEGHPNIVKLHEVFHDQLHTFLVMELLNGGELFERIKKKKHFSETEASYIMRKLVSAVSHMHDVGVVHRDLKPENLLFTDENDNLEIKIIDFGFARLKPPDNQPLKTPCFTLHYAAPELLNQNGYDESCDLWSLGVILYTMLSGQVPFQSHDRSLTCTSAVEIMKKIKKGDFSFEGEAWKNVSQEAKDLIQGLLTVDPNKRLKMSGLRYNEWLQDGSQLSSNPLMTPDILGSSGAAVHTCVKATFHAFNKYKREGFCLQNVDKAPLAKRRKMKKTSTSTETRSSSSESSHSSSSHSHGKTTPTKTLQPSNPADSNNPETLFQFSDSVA

Block 1 — technique: protein-binding microarray; molecule type: double-stranded DNA, one strand shown; matrix: in vitro; concentration: 0.8 µM; notes: whole 60-bp probe, no competitor; reading: higher = stronger binding; quantity: fluorescence intensity; constant ends, left off below: … GTCTTGATTCGCTTGACGCTGCTG
Target: Centromere-binding protein 1, full length, N-terminal tag (CBF1, Saccharomyces cerevisiae, UniProt P17106, residues 1-351)
Chain of UniProt P17106 (whole entry, looked up): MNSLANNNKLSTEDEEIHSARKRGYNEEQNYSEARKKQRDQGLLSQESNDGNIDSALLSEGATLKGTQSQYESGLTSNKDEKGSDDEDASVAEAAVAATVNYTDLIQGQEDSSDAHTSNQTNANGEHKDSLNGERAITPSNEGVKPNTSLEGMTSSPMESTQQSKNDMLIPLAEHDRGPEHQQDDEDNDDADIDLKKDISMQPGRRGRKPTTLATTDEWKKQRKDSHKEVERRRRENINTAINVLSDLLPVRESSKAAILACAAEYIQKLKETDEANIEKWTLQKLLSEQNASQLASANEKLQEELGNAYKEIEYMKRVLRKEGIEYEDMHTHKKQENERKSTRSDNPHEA
CTACTACCATGAATGCACGTGTCGCTGTCCTCATTC: 5650 a.u.
CTAATTTCTCAGCGCCAGGTGATCTAACAATTTTTC: 885 a.u.
CTAATACATTGAATGCTGATGTCCATCACACATTTC: 503 a.u.
CTAACACTAACATGTGTCGTGACCAATGTGCAGTTC: 1730 a.u.
CTAACGAGAAGGACAAACATCAGGGACCCATACTTC: 498 a.u.
GAACTCAAGAGAAATTTCATGACACTTTTTTAATAG: 509 a.u.
CTAGATTCAGGTGCTCATCAGATGCACCACATTTTC: 615 a.u.
TGTACGAAGCTATATCAGACATCTATAGTAGTTAGG: 535 a.u.

Block 2 — target: JUN, bZIP domain (human); technique: DHFR protein complementation; matrix: yeast; reference: wild-type JUN-FOS pair; reading: higher = stronger binding; quantity: binding fitness
Notes: single substitutions, most at no-binding floor
Starting sequence: JUN, bZIP domain (human); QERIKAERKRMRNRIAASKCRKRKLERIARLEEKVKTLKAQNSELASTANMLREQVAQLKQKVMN; partner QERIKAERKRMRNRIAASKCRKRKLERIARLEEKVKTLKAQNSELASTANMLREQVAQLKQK
T48C: -0.411 natural log
A46W: -0.48 natural log
E44H: -0.354 natural log
V56K: -1.06 natural log
K36S: -0.321 natural log
V56E: -0.919 natural log
E54F: -0.843 natural log
A29L: -0.525 natural log

Block 3 — SMILES: O=C(CCCc1ccc(-c2ccccc2F)cc1)Nc1ccc(O)cc1; effect on: enzyme activity; mode: inhibitor; concentration: 0.5 µM; reference: control; quantity: remaining activity
MAPKAPK2 (Homo sapiens, UniProt P49137): 103%
WEE1 (Homo sapiens, UniProt P30291): 83.7%
TEK (Homo sapiens, UniProt Q02763): 101%
TAOK2 (Homo sapiens, UniProt Q9UL54): 98.4%
EPHA3 (Homo sapiens, UniProt P29320): 100%
NEK1 (Homo sapiens, UniProt Q96PY6): 100%

Block 4 — effect on: cell-free assay; technique: competition with immobilised ligand; concentration: 1 µM; quantity: remaining binding
SMILES: CC(=O)Nc1c(C(C)=O)c(=O)n(C)c2nc(-c3ccc(Cl)cc3Cl)c(-c3ccc(Cl)cc3)cc12
PRKD1 (Homo sapiens, UniProt Q15139): 100%
CSK (Homo sapiens, UniProt P41240): 100%
FGFR3 (Homo sapiens, UniProt P22607, G697C): 100%
Ribosomal protein S6 kinase alpha-5, N-terminal kinase domain (RPS6KA5, Homo sapiens, UniProt O75582): 100%
ERBB2 (Homo sapiens, UniProt P04626): 100%

Repeated from above (block 3):
MAPKAPK2 (Homo sapiens, UniProt P49137): 103%
WEE1 (Homo sapiens, UniProt P30291): 83.7%
TEK (Homo sapiens, UniProt Q02763): 101%
